{"data": "Measurements from different studies", "note": "Each numbered part is a random draw from the data of one study; scales do not carry over between parts."}
{"data": "Sample 1", "partner": "ARF7 1030-1164 (Arabidopsis thaliana, UniProt P93022)", "method": "two-hybrid", "relative to": "out of 4 tests", "reading": "higher = firmer interaction", "B1": "ARF1 538-665 (Arabidopsis thaliana, UniProt Q8L7G0); chain SRQIRSCTKVHMQGSAVGRAIDLTRSECYEDLFKKLEEMFDIKGELLESTKKWQVVYTDDEDDMMMVGDDPWNEFCGMVRKIFIYTPEEVKKLSPKNKLAVNARMQLKADAEENGNTEGRSSSMAGSR", "B2": "ARF5 788-902 (Arabidopsis thaliana, UniProt P93024); chain ATPRVRTYTKVQKTGSVGRSIDVTSFKDYEELKSAIECMFGLEGLLTHPQSSGWKLVYVDYESDVLLVGDDPWEEFVGCVRCIRILSPTEVQQMSEEGMKLLNSAGINDLKTSVS", "B3": "IAA32 (Arabidopsis thaliana, UniProt Q8RYC6); chain MDPNTPADFFKGSSKFHTYYSQTKKGGGVIDLGLSLRTIQHETYLPPARMIGLDGYGELIDWSQPSYNSITQLKSEDTGHQRLAQGYYNNEGESRGKYAYVKVNLDGLVVGRKVCLVDQGAYATLALQLNDMFGMQTVSGLRLFQTESEFSLVYRDREGIWRNVGDVPWKEFVESVDRMRIARRNDALLPF", "B4": "ARF4 660-788 (Arabidopsis thaliana, UniProt Q9ZTX9); chain QSSSKRICTKVHKQGSQVGRAIDLSRLNGYDDLLMELERLFNMEGLLRDPEKGWRILYTDSENDMMVVGDDPWHDFCNVVWKIHLYTKEEVENANDDNKSCLEQAALMMEASKSSSVSQPDSSPTITRV", "B5": "ARF2 727-859 (Arabidopsis thaliana, UniProt Q94JM3); chain TKTNSSRSCTKVHKQGIALGRSVDLSKFQNYEELVAELDRLFEFNGELMAPKKDWLIVYTDEENDMMLVGDDPWQEFCCMVRKIFIYTKEEVRKMNPGTLSCRSEEEAVVGEGSDAKDAKSASNPSLSSAGNS", "Residues (chain)": "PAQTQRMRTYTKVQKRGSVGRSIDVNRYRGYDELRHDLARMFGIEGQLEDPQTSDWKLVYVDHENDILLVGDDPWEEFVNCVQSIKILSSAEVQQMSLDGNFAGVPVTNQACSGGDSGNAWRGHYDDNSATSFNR"}
{"Molecule": "B1 (ARF1 538-665)", "positive tests": 1}
{"Molecule": "B2 (ARF5 788-902)", "positive tests": 0}
{"Molecule": "B3 (IAA32)", "positive tests": 3}
{"Molecule": "B4 (ARF4 660-788)", "positive tests": 0}
{"Molecule": "B5 (ARF2 727-859)", "positive tests": 1}
{"data": "Sample 2", "target": "NT-3 growth factor receptor (NTRK3, Homo sapiens, UniProt Q16288)", "read-out": "enzyme activity", "mode": "inhibitor", "tested at": "0.5 µM", "relative to": "control", "UniProt Q16288, sequence (whole entry, looked up)": "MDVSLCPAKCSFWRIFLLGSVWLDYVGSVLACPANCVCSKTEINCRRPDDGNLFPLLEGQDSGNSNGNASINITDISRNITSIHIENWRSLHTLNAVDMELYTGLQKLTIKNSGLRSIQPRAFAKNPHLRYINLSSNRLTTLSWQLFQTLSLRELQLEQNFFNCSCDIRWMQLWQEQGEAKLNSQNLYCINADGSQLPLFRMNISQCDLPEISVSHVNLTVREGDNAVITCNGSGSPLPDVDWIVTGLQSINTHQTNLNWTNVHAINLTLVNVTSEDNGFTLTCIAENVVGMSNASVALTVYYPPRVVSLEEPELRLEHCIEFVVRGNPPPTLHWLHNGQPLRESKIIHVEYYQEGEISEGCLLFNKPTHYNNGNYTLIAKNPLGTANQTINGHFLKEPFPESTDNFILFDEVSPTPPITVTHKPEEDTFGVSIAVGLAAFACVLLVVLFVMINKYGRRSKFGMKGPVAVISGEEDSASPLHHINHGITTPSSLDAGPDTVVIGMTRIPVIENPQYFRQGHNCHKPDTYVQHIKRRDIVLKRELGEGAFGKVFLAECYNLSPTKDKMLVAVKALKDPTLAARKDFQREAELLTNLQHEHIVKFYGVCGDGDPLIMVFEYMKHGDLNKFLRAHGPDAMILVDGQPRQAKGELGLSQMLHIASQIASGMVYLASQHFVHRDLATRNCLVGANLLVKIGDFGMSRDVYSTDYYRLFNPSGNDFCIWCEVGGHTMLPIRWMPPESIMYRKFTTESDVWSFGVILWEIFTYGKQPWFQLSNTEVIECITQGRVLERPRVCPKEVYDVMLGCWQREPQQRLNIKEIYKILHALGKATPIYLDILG"}
{"Structure (SMILES)": "O=Nc1c(-c2c(O)[nH]c3cc(Br)ccc23)[nH]c2ccccc12", "remaining activity [%]": 4.98}
{"Structure (SMILES)": "O=c1c(-c2ccc(F)cc2)c(-c2ccncc2)[nH]n1-c1ccc(Cl)cc1", "remaining activity [%]": 99.2}
{"Structure (SMILES)": "Oc1cccc(-c2nc(N3CCOCC3)c3oc4ncccc4c3n2)c1", "remaining activity [%]": 91.1}
{"Structure (SMILES)": "CC(C)n1cnc2c(Nc3cccc(Cl)c3)nc(NCCO)nc21", "remaining activity [%]": 30.7}
{"Structure (SMILES)": "O=C1NC(=O)c2c1c1c3ccccc3[nH]c1n1cncc21", "remaining activity [%]": 26.1}
{"Structure (SMILES)": "C[C@@H](N)[C@H]1CC[C@H](C(=O)Nc2ccncc2)CC1", "remaining activity [%]": 93.6}
{"Structure (SMILES)": "N#CC(c1ccnc(NCCc2cccnc2)n1)c1nc2ccccc2s1 (stereo not drawn)", "remaining activity [%]": 80.2}
{"Structure (SMILES)": "Cc1ccc(S(=O)(=O)/C=C/C#N)cc1", "remaining activity [%]": 95.5}
{"Structure (SMILES)": "O=C1Cc2c([nH]c3ccc(Br)cc23)-c2ccccc2N1", "remaining activity [%]": 70.7}
{"Structure (SMILES)": "Nc1nc(Nc2ccc(S(N)(=O)=O)cc2)nn1C(=S)Nc1c(F)cccc1F", "remaining activity [%]": 3.59}
{"Structure (SMILES)": "CN(C)S(=O)(=O)c1ccc2c(c1)/C(=C/c1cc3c([nH]1)CCCC3)C(=O)N2", "remaining activity [%]": 2.88}
{"Structure (SMILES)": "N#Cc1cnc2cnc(NCc3cccnc3)cc2c1Nc1ccc(F)c(Cl)c1", "remaining activity [%]": 93.2}
{"Structure (SMILES)": "c1cc(-c2cnn3cc(-c4ccc(OCCN5CCCCC5)cc4)cnc23)ccn1", "remaining activity [%]": 7.7}
{"data": "Sample 3", "target": "Cellular tumor antigen p53, full length (TP53, Homo sapiens, UniProt P04637, residues 1-393)", "method": "protein-binding microarray", "molecule type": "hairpin DNA", "matrix": "in vitro", "tested at": "not given", "setting": "whole hairpin DNA, median over replicate spots", "relative to": "not given", "reading": "higher = stronger binding"}
{"Sequence": "CGGACATGCCCAGGCATGTCTCCTGACATGCCTGGGCATGTCCGACACTC", "median fluorescence": "18800 a.u."}
{"Sequence": "CCACACGTGGTGGCATGCCTTCCTAGGCATGCCACCACGTGTGGACACTC (5mC at 6)", "median fluorescence": "7650 a.u."}
{"Sequence": "CGGACCGGCCCGGGCATGTCTCCTGACATGCCCGGGCCGGTCCGACACTC", "median fluorescence": "12800 a.u."}
{"Sequence": "CGGACCTGCCCGGGCATGTCTCCTGACATGCCCGGGCAGGTCCGACACTC", "median fluorescence": "14800 a.u."}
{"Sequence": "CCACACGTGGTGGCATGCCTTCCTAGGCATGCCACCACGTGTGGACACTC (5mC at 14)", "median fluorescence": "7120 a.u."}
{"Sequence": "CGGACATGCCCGGGCATGTCTCCTGACATGCCCGGGCATGTCCGACACTC (5mC at 37)", "median fluorescence": "20000 a.u."}
{"Sequence": "CGGACGTGCCCGGGCATGTCTCCTGACATGCCCGGGCACGTCCGACACTC (5mC at 39)", "median fluorescence": "18100 a.u."}
{"Sequence": "CCACACGTGGTTGCATGCCTTCCTAGGCATGCAACCACGTGTGGACACTC", "median fluorescence": "6070 a.u."}
{"data": "Sample 4", "target": "5-hydroxytryptamine receptor 1B (HTR1B, Homo sapiens, UniProt P28222)", "read-out": "ligand displacement", "method": "radioligand", "tested at": "10 µM", "UniProt P28222, sequence (whole entry, looked up)": "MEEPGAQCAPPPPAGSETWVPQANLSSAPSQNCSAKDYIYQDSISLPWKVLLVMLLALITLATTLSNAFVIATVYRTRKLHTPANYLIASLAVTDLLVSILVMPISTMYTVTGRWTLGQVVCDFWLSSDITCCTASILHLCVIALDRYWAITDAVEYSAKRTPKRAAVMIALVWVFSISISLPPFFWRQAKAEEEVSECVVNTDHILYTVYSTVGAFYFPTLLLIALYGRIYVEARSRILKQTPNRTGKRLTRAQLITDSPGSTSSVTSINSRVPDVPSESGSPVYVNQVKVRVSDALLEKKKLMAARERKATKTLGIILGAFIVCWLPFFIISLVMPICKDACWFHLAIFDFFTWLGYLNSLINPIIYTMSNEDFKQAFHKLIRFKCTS"}
{"SMILES": "O=C([C@H]1C[C@H](O)CN1c1ccc(Cl)cc1)N1CC2COCC(C1)N2Cc1ccc(Cl)cc1", "inhibition [%]": -6.45}
{"SMILES": "Cc1cc(NC(=O)c2cccc(S(F)(F)(F)(F)F)c2)cc(-n2ccn3nc(-c4cccnc4)cc23)c1", "inhibition [%]": -1.66}
{"SMILES": "COc1ccc2cc(OCC3(C(=O)O)CN(C(=O)c4ccc(F)cc4)C3)ccc2c1", "inhibition [%]": -11.2}
{"SMILES": "O=C(NCc1ncc(C(F)(F)F)cc1Cl)c1ccc2c(c1)C1(CCS(=O)(=O)CC1)[C@H](C1CC1)N2S(=O)(=O)c1ccc(F)cc1", "inhibition [%]": -6.19}
{"note": "Some of these lines once more (sample 3):"}
{"Sequence": "CGGACCGGCCCGGGCATGTCTCCTGACATGCCCGGGCCGGTCCGACACTC", "median fluorescence": "12800 a.u."}
{"Sequence": "CGGACCTGCCCGGGCATGTCTCCTGACATGCCCGGGCAGGTCCGACACTC", "median fluorescence": "14800 a.u."}
{"Sequence": "CCACACGTGGTGGCATGCCTTCCTAGGCATGCCACCACGTGTGGACACTC (5mC at 14)", "median fluorescence": "7120 a.u."}
{"Sequence": "CGGACATGCCCGGGCATGTCTCCTGACATGCCCGGGCATGTCCGACACTC (5mC at 37)", "median fluorescence": "20000 a.u."}
{"Sequence": "CGGACGTGCCCGGGCATGTCTCCTGACATGCCCGGGCACGTCCGACACTC (5mC at 39)", "median fluorescence": "18100 a.u."}
